Experimental data gathered from unrelated publications.
Lines come from different studies, so protocols differ. ± gives the spread as reported.

Compound | test | system | setting | how to read | quantity | result
CC(C)C[C@@H](N)C(=O)NCC(=O)N[C@H](C)C(=O)N[C@H](CO)C(=O)N[C@H](Cc1c[nH]c2ccccc12)C(=O)N[C@H](Cc1c[nH]cn1)C(=O)N[C@H](CCCNC(=N)N)C(=O)N1CCC[C@@H]1C(=O)N[C@H](CC(=O)O)C(=O)N[C@H](CCCCN)C(=O)N[C@H](CS)C(=O)N[C@H](CS)C(=O)N[C@H](CC(C)C)C(=O)NCC(=O)N[C@H](Cc1ccc(O)cc1)C(=O)N[C@H](CCC(N)=O)C(=O)N[C@H](CCCCN)C(=O)N[C@H](CCCNC(=N)N)C(=O)N1CCC[C@@H]1C(=O)N[C@H](CC(C)C)C(=O)N1CCC[C@@H]1C(N)=O | LC-MS/MS | rat plasma extract | 500 ng/mL, 4 h, 8 °C, autosampler storage | reference: nominal | accuracy | 97.3%
[11CH3]n1c(=O)n(CCCO)c(=O)c2c1nc(Oc1cccc(OC(F)(F)F)c1)n2Cc1ccc(Cl)cc1 | ex vivo biodistribution | Sprague Dawley rat, fat | 60 min post injection |  | tracer uptake | 0.86 ± 0.23 %ID/g
C[C@@H]1CC[C@H]2[C@@H](C)CO[C@@H]3O[C@@]4(C)CC[C@@H]1[C@]32OO4 | measured: compound | rat, plasma | 2.00 ng/mL spiked, 24 h, autosampler at 4 °C |  | measured concentration | 1.95 ± 0.11 ng/mL
O=C(N=P12CN3CN(CN(C3)C1)C2)c1ccccn1.[Cl][Au+][Cl].[O-][Cl+3]([O-])([O-])[O-] | NMR | DMSO | room temperature |  | decomposition time | 4 h
CC(C)[C@H](NC(=O)[C@H](CC(N)=O)NC(=O)[C@@H](NC(=O)[C@@H]1CCCN1C(=O)[C@@H](NC(=O)[C@@H](N)Cc1ccccc1)C(C)C)[C@@H](C)O)C(=O)NCC(=O)N1CCC[C@H]1C(=O)N[C@@H](Cc1ccccc1)C(=O)N[C@@H](C)C(=O)N[C@@H](Cc1ccccc1)C(N)=O |  | 25 % human serum | 50 µg/mL, 30 min, 37 °C |  | peptide concentration | 13.8 µg/mL
COc1cc2ncnc(Oc3cccc(N[11C](=O)Nc4cc(C(C)(C)C(F)(F)F)on4)c3)c2cc1OC | radio-HPLC | Balb/c nude mice, urine | intravenous, 30 min | reference: radioactivity | intact compound | 1.98 ± 0.79%
COC(=O)C[C@](O)(CCCC(C)(C)OC(C)=O)C(=O)O[C@@H]1C(OC)=C[C@]23CCCN2CCc2cc4c(cc2[C@H]13)OCO4 |  | CD1 mouse, plasma | oral, 1 mg/kg, 24 h |  | concentration | not detected
O=C(O)[c-]1cccc1.O=C(Oc1ccc(-n2cccc2)cc1)[c-]1cccc1.[Fe+2] | cyclic voltammetry | acetonitrile |  | reference: Ag/AgCl | Epa | 1030 mV
CC(C)[C@H](NC(=O)CNC(=O)[C@H](CCC(N)=O)NC(=O)[C@H](C)N)C(=O)O | moderate intensity | human | 30 mg/kg, 3 days, thrice daily dosing |  | subjects with adverse events | 0%
CC[C@@H]1C[C@]1(NC(=O)[C@@H]1C[C@@]2(CN1C(=O)[C@@H](NC(=O)[C@@H](NC(=O)[C@@H]1CCCCN1C(C)C)C1CCCCC1)C(C)(C)C)C(C)(C)C21CCC1)C(=O)NS(=O)(=O)N1CCCC1 |  | human | oral, 50 mg, with: ritonavir 100 mg |  | subjects with abdominal pain | 0%

Repeated from above:
Compound | test | system | setting | how to read | quantity | result
CC(C)C[C@@H](N)C(=O)NCC(=O)N[C@H](C)C(=O)N[C@H](CO)C(=O)N[C@H](Cc1c[nH]c2ccccc12)C(=O)N[C@H](Cc1c[nH]cn1)C(=O)N[C@H](CCCNC(=N)N)C(=O)N1CCC[C@@H]1C(=O)N[C@H](CC(=O)O)C(=O)N[C@H](CCCCN)C(=O)N[C@H](CS)C(=O)N[C@H](CS)C(=O)N[C@H](CC(C)C)C(=O)NCC(=O)N[C@H](Cc1ccc(O)cc1)C(=O)N[C@H](CCC(N)=O)C(=O)N[C@H](CCCCN)C(=O)N[C@H](CCCNC(=N)N)C(=O)N1CCC[C@@H]1C(=O)N[C@H](CC(C)C)C(=O)N1CCC[C@@H]1C(N)=O | LC-MS/MS | rat plasma extract | 500 ng/mL, 4 h, 8 °C, autosampler storage | reference: nominal | accuracy | 97.3%
